Results gathered from unrelated publications.
A part holds a random share of what one study measured.

Sample 1 — technique: protein-binding microarray; form: double-stranded DNA, one strand shown; matrix: in vitro; tested at: 250 nM; setting: 60-bp whole probe; added: salmon DNA 0.4 mg/ml; baseline: random background probes; direction: higher = stronger binding; constant ends, left off below: GCCTAGCAC … GTCTTGATTCGCTTGACGCTGCTG
Target: Interferon regulatory factor 5, full length, phosphomimetic (IRF5, Homo sapiens, UniProt Q13568-2, residues 1-514, K96S/S451D/S453D/S456D/S462D)
| Oligonucleotide | log fluorescence [z-score] |
| --- | --- |
| GACGGTTTCGACTATCGGGATGTGCTA | 7.32 |
| GACGGACTTGGACTGGGGACGTGCTAG | -0.293 |
| GACAGTCTCGGTATCGGGACGTGCTAG | 2.03 |
| TTGGGTATCCTTATCCTTTAGTGCTAG | -0.176 |
| GACAGACTGGGGTTTCGGGACGTGCTA | 1.44 |
| TTAGGTCTCCTTATCCTTAAGTGCTAG | -0.217 |
| GACGGTATCCTTATCTTGACGTGCTAG | 0.174 |
| TCAGATTTCGATTACAAACTGTGCTAG | 6.25 |
| TCACTTTTCTGTTGTCTGACTGTGCTA | 2.03 |
| AATCATTTTCGTTTTTATTAGTGCTAG | 7.68 |
| GATGGTTTCGGGTTTCGGGACGTGCTA | 8.73 |
| TCAGCATTCCCTTTCTCACTGTGCTAG | 0.652 |
| TTAGGTTTCGACACCGGGTTAGTGCTA | 5.78 |
| TTAGATTTCACTTTCGATTAGTGCTAG | 10.9 |
| TTAGATTTCAGTATCCATTAGTGCTAG | 2.47 |
| GACGGATTCGGTTCCGGGACGTGCTAG | 0.435 |
| TTAGATATCGGGTATCTATTAGTGCTA | 3.16 |
| GGCTCTCTGGACTGTGTGTTTGTGCTA | -0.387 |
| GACGATTTCGGGACTGGAGATGTGCTA | 1.9 |

Sample 2 — technique: protein-binding microarray; form: hairpin DNA; matrix: in vitro; tested at: not given; baseline: not given; direction: higher = stronger binding
Target: Runt-related transcription factor 1, full length (RUNX1, Homo sapiens, UniProt Q01196-8, residues 1-480)
Setting: whole hairpin DNA, median over replicate spots
| Oligonucleotide | median fluorescence |
| --- | --- |
| CTCAGTGCTGTGGGCTGGACTCCTGTCCAGCCCACAGCACTGAGACACTC | 1830 a.u. |
| CTCAGTTCTGTGGGCTGGACTCCTGTCCAGCCCACAGAACTGAGACACTC (5mC at 28) | 1950 a.u. |
| GAGGCCCGTTGCGGTTGGCCTCCTGGCCAACCGCAACGGGCCTCACACTC (5mC at 7 37) | 6030 a.u. |
| GAGGCCCAACCCCAACAGCCTCCTGGCTGTTGGGGTTGGGCCTCACACTC (5mC at 12) | 2110 a.u. |
| GAGGCCTGTCGCGGTTGGCCTCCTGGCCAACCGCGACAGGCCTCACACTC (5mC at 10 12 34) | 3270 a.u. |
| GAGGCCTGTTGTGGTTGGCCTCCTGGCCAACCACAACAGGCCTCACACTC (5mC at 37) | 3260 a.u. |
| CTCAGTGCTGTGGGCTGGACTCCTGTCCAGCCCACAGCACTGAGACACTC (5mC at 38) | 1970 a.u. |
| CTCAGTTCTGTGGCGTGGACTCCTGTCCACGCCACAGAACTGAGACACTC | 1970 a.u. |
| GAGGCCTGTCGCGGTTGGCCTCCTGGCCAACCGCGACAGGCCTCACACTC (5mC at 31) | 1700 a.u. |

Sample 3 — technique: RNA Bind-n-Seq; form: RNA; matrix: in vitro; tested at: 365 nM; baseline: no-protein control; direction: higher = stronger binding
Target: RNA binding protein fox-1 homolog 2, RRM domain, GST-SBP tag (RBFOX2, Homo sapiens, UniProt O43251-10, residues 100-194)
Setting: natural RNA segment, single round, ends assumed
Construct (chain): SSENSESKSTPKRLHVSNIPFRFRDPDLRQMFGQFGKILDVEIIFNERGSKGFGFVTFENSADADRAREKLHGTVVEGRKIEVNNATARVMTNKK
| Oligonucleotide | RBNS enrichment (R) |
| --- | --- |
| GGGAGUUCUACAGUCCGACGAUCUCUCACUGCUUUUUGUCUGAAACACAGAGUUGAUUUCCGAGAAUGAUUGGGAAGAAAAGAAAUGGAUUUUUAUACACAUACACCAAAAAUAUUUUAAUGAUUCACUUGCCUGGAAUUCUCGGGUGCCAA | 1.1 |
| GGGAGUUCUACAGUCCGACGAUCUGGCCCGGCCAGCCACCGUCCCCAGCACCCAAGCAUGCAAUUGCCUGUCCCCCCCGGCCAGCCUCCCCAACUUGAUGUUUGUGUUUUGUUUGGGGGGAUAUUUUUCAUAAUGGAAUUCUCGGGUGCCAA | 7.77 |
| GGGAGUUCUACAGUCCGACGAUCACUGUGGCUGGAAUGUGGUGGGCUUGGUGACUUUUCUUUCUGCCCUCCCUUGAGUGCUCACCCUCCACCUACCAGACUGGAAGCUGACUUUAAGUCCUCUAAUAAAAAUAUGGAAUUCUCGGGUGCCAA | 2.02 |
| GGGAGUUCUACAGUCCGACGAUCGCCGGGACUGGAGUCCCUGGGCCCUCAACACUGGAUGCAAAUGUGUUACACUGGAGCCUGCUGCAGGCCAGCUCUCUGCUCUUCACUGCUUCCCUUGACUGGGGAGACUGUGGAAUUCUCGGGUGCCAA | 1.87 |
| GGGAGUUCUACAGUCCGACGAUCUGCUGUUAAAUAUGCAAAUAGUUUAAUCUUUUUUUCUUUUGUUGUUUGAUGGGAAAUUGUGACAUUCCAAGUUGACUUUUUUUUAUUAUCUGAAUUAAAAUUUGAAACUCUGGAAUUCUCGGGUGCCAA | 0.618 |
| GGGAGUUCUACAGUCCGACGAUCUUCACUUUCCCAUGAAACUGCUGACAGACAGAAGUCACUAAAAUAAGGAAUUUUAAUGUUACUUUUUGAGUAACGACUGAGUUACCAGCAUUCUUGAUUCUUAGCGCUUUUGGAAUUCUCGGGUGCCAA | 0.263 |
| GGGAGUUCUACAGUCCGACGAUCCUGGAAAAAAAAUUAUUAAUAAUGUGAAACAAACCAACUUAAAAAGUGAUUCUUGCACAUGAAUUGUCACAUAUUAUAUGUGUUUUUUAAAGAGCCUCAGUCUGACUGAUUGGAAUUCUCGGGUGCCAA | 1.51 |
| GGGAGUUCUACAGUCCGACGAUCGCCUGGGUGACAGAGCGAGACUUUGUCCCAAAACAAAAUAGGUGAGGGGAUAGCGAAUGCACUCAGGGUCAGCAGUGGAGUUUAAAAAUUGUCUCUUUUCAACUUAUUUAUGGAAUUCUCGGGUGCCAA | 1.07 |

Sample 4 — technique: protein-binding microarray; form: double-stranded DNA, one strand shown; matrix: in vitro; tested at: 0.8 µM; setting: whole 60-bp probe, no competitor; direction: higher = stronger binding
Target: Centromere-binding protein 1, full length, N-terminal tag (CBF1, Saccharomyces cerevisiae, UniProt P17106, residues 1-351)
Chain of UniProt P17106 (whole entry, looked up): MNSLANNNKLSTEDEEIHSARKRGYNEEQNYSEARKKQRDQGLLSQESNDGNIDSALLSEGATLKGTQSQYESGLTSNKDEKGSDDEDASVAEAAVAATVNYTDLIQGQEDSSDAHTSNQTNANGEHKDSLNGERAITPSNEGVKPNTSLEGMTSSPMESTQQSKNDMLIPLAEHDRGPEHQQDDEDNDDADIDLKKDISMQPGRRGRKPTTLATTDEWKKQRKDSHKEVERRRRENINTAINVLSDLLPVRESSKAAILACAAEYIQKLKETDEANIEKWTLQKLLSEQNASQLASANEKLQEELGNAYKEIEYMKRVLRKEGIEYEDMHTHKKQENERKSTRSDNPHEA
| Oligonucleotide | fluorescence intensity |
| --- | --- |
| GAATAACATTAACAGCTGATGACTTGAAGTATATAGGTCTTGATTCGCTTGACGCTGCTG | 612 a.u. |
| GAAAGTTTATACCCCCACGTATTTTCCTCCGCATAGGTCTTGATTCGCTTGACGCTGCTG | 515 a.u. |
| GAATCTATTATCAAGCATGATCACCATCATCAATAGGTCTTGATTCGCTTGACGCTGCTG | 594 a.u. |
| CCTAACTACTATAAGGTCATGAGATAGCTTCGTACAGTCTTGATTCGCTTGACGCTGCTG | 696 a.u. |
| TGTACGAAGCTATATCACGTGACTATAGTAGTTAGGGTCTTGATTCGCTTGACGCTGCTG | 37400 a.u. |
| CTATTAGTAGAACCTCGTGAAACTTACATTTACTTCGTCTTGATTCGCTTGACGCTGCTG | 557 a.u. |
| GAAATGGTGAAAAACCACGTTCTCGAAGCCAATTAGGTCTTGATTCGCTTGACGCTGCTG | 598 a.u. |
| GAAAATTGGCACTTCAACGTGTATGGAAGTTGCTAGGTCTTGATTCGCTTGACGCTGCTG | 529 a.u. |
| CTATTTGTTCCTTGGAACCACATGATTTACTCATTCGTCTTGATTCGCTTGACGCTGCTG | 1510 a.u. |
| CTAGGGGATTTCCCACGTGCTCCAACAAACGGTTTCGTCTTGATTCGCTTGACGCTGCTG | 3970 a.u. |
| CTAGTGTCAAATGTGGACATGATGACATAAGGTTTCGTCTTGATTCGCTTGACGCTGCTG | 532 a.u. |
| TGTACGAAGCTATCAGAAGTCACTATAGTAGTTAGGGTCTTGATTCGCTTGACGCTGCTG | 552 a.u. |
| CTAAATGGTCCAAAGCATGTGCTAAACTGCCACTTCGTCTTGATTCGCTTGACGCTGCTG | 597 a.u. |
| GAACGTTGGGTTATCCACGGGGTTTTCTGAGCATAGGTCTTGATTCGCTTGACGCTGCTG | 571 a.u. |
| CCTAACTACTATAAGACCACCACATAGCTTCGTACAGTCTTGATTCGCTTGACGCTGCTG | 555 a.u. |
| GAACGTGCTGAGATCTACCTGACGGGCGGTGAATAGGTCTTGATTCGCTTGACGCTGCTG | 491 a.u. |
| CTATATTATTGACGTGGTCGCAGAACAGTTCGGTTCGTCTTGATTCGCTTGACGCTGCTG | 528 a.u. |
| CTACCCACGCCGCGTGGTGCCTTTGTTCCTTGGTTCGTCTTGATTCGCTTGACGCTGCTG | 573 a.u. |
| CTACCCTTCCCCTATCAACTGATTGAAGAATGCTTCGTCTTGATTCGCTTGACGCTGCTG | 545 a.u. |

Some of these lines once more (sample 4):
| Oligonucleotide | fluorescence intensity |
| --- | --- |
| CTATTAGTAGAACCTCGTGAAACTTACATTTACTTCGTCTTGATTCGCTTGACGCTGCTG | 557 a.u. |
| CTAGTGTCAAATGTGGACATGATGACATAAGGTTTCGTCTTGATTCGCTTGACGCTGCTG | 532 a.u. |
| TGTACGAAGCTATATCACGTGACTATAGTAGTTAGGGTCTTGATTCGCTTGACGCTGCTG | 37400 a.u. |
| TGTACGAAGCTATCAGAAGTCACTATAGTAGTTAGGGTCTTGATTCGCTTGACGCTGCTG | 552 a.u. |
